Measurements from different studies.
Each line is one published result; not all experiments were run side by side. ± marks the error that the study gave.

Structure (SMILES) | tested on | assay | system | conditions | scale | measurement | value
O=C(Nc1ccc2c(c1)OCO2)c1ccccc1Sc1ccc([N+](=O)[O-])cc1Cl | HIV-1 | viral replication, measured: RT activity | H9 expressing A3G, LAI, X4-tropic wild type | day 7 | – | IC50 | 25 µM
Nc1ncnc2c([C@@H]3N[C@H](CO)[C@@H](O)[C@H]3O)c[nH]c12 | Nipah henipavirus | viral replication | HeLa, Malaysia | 1.6 µM | – | inhibition | 6.5%
CNC(=O)[C@@H](NC(=O)[C@H](CC(C)C)[C@H](O)C(=O)NO)C(C)(C)C | Daboia russelii venom proteases (SVMP) | protease activity, inhibitor | RJ population | 0.01 µM, together with: azocasein substrate | relative to: venom alone | remaining activity | 100%
CC(Nc1nc(N2CCNCC2C)nc2ccccc12)c1ccccc1 (stereo not drawn) | SARS-CoV-2 | cytopathic effect, cell-based CPE | USA_WA1/2020 | round 2, 5-point dilution | – | AC50 | 8.91 µM
CNCC(NC(=O)c1ccc(-c2ccc3c(c2)OCO3)[nH]1)c1nc(CO)cs1 (stereo not drawn) | human immunodeficiency virus 1 | viral replication | PBMC | 168 h | – | IC50 | 2.8 ± 0.4 µM
Nc1nc(N)c2ncn([C@H]3C[C@H](O)[C@](CO)(CF)O3)c2n1 | HIV-1 M184V | MTT | MT4 | – | – | IC50 | > 1 µM
NCC(NC(=O)c1ccc(-c2ccc3c(c2)OCO3)[nH]1)c1ncc(CO)s1 (stereo not drawn) | human immunodeficiency virus 1 | viral replication | PBMC | 168 h | – | IC50 | 1.9 ± 0.2 µM
COc1ccc(COc2ccccc2C(=O)Nc2ccccc2OC)cc1 | HIV-1 | viral replication, measured: RT activity | H9 expressing A3G, LAI, X4-tropic wild type | day 7 | – | IC50 | > 100 µM
C=C(C)[C@@H]1CC[C@]2(C(=O)NCCCCCCCCNC(=O)[C@H](CCC#N)NC(=O)OC(C)(C)C)CC[C@]3(C)[C@H](CC[C@@H]4[C@@]5(C)CC[C@H](OC(=O)CC(C)(C)C(=O)O)C(C)(C)[C@@H]5CC[C@]43C)[C@@H]12 | Human immunodeficiency virus 1 | viral replication, ELISA | MT4, NL43 | 96 h | – | IC50 | ≤ 0.05 µM
COc1ccccc1NC(=O)c1ccccc1Sc1ccc(N)cc1 | HIV-1 | viral replication, measured: RT activity | H9 expressing A3G, LAI, X4-tropic wild type | day 7 | – | IC50 | 20 µM
Cn1cnc(Cn2c(=O)[nH]/c(=N\c3cc4cn(C)nc4cc3Cl)n(Cc3cc(F)c(F)cc3F)c2=O)n1 | – | – | human, moderate renal impairment | oral, 375 mg, hypertriglyceridaemia TEAE, Severe severity | – | patients with adverse event | 0%
C#C[C@]1(CO)O[C@@H](n2ccc(N)nc2=O)C[C@@H]1O | HIV-1 T215F | MTT | MT4 | – | – | IC50 | 0.03 ± 0.0139 µM
C=C(C)[C@@H]1CC[C@]2(C(=O)NCCCCCCCCNC(=O)[C@H](CCC(N)=O)NC(=O)OC(C)(C)C)CC[C@]3(C)[C@H](CC[C@@H]4[C@@]5(C)CC[C@H](OC(=O)CC(C)(C)C(=O)O)C(C)(C)[C@@H]5CC[C@]43C)[C@@H]12 | Human immunodeficiency virus 1 | viral replication, ELISA | MT4, NL43 | 96 h | – | IC50 | ≤ 0.05 µM
O=C(NCCCN1CCCCCC1)c1ccc2c(c1)sc1nc(-c3ccccc3)cn12 | SARS-CoV-2 | cytopathic effect | USA_WA1/2020 | round 2, 5-point | – | maximum response | 76.6%
CC[C@]1(CO)O[C@@H](n2cnc3c(N)nc(N)nc32)C[C@@H]1O | HIV-1 T215F | – | MT4 | – | – | IC50 | 0.0259 ± 0.0061 µM
COc1ccccc1C(=O)Nc1ccccc1OCc1ccc([N+](=O)[O-])cc1 | HIV-1 | viral replication, measured: RT activity | H9 expressing A3G, LAI, X4-tropic wild type | day 7 | – | IC50 | 34 µM
CC[C@H](C)[C@H](NC(=O)[C@H](CC(C)C)NC(=O)[C@H](Cc1c[nH]c2ccccc12)NC(=O)[C@H](CCC(N)=O)NC(=O)[C@@H](NC(=O)[C@H](Cc1ccccc1)NC(=O)[C@H](C)NC(=O)[C@H](CCCCNC(=O)COCCOCCNC(=O)COCCOCCNC(=O)CC[C@H](NC(=O)CCCCCCCCCCCCCCCCCCC(=O)O)C(=O)O)NC(=O)[C@H](CCC(N)=O)NC(=O)[C@H](C)NC(=O)[C@@H](NC(=O)[C@H](CCCCN)NC(=O)[C@H](CC(=O)O)NC(=O)[C@H](CC(C)C)NC(=O)C(C)(C)NC(=O)[C@@H](NC(=O)[C@H](CO)NC(=O)[C@H](Cc1ccc(O)cc1)NC(=O)[C@H](CC(=O)O)NC(=O)[C@H](CO)NC(=O)[C@@H](NC(=O)[C@H](Cc1ccccc1)NC(=O)[C@@H](NC(=O)CNC(=O)[C@H](CCC(=O)O)NC(=O)C(C)(C)NC(=O)[C@@H](N)Cc1ccc(O)cc1)[C@@H](C)O)[C@@H](C)O)[C@@H](C)CC)[C@@H](C)CC)C(C)C)C(=O)N[C@@H](C)C(=O)NCC(=O)NCC(=O)N1CCC[C@H]1C(=O)N[C@@H](CO)C(=O)N[C@@H](CO)C(=O)NCC(=O)N[C@@H](C)C(=O)N1CCC[C@H]1C(=O)N1CCC[C@H]1C(=O)N1CCC[C@H]1C(=O)N[C@@H](CO)C(N)=O | – | measured: Dyspepsia | healthy subjects | 5/5/8/10 mg titrated, multiple ascending dose | – | subjects with adverse events | 0%
N#CC(C#N)=NNc1ccc(OC(F)(F)F)cc1 | Plasmodium yoelii | parasite growth | 17XL | – | – | IC50 | 8.6 µM
